Results gathered from unrelated publications.
Every numbered part comes from another study and shows a few of its results, in no order. Substitutions count along the parent as printed.
Chain of UniProt Q2M2I8 (whole entry, looked up): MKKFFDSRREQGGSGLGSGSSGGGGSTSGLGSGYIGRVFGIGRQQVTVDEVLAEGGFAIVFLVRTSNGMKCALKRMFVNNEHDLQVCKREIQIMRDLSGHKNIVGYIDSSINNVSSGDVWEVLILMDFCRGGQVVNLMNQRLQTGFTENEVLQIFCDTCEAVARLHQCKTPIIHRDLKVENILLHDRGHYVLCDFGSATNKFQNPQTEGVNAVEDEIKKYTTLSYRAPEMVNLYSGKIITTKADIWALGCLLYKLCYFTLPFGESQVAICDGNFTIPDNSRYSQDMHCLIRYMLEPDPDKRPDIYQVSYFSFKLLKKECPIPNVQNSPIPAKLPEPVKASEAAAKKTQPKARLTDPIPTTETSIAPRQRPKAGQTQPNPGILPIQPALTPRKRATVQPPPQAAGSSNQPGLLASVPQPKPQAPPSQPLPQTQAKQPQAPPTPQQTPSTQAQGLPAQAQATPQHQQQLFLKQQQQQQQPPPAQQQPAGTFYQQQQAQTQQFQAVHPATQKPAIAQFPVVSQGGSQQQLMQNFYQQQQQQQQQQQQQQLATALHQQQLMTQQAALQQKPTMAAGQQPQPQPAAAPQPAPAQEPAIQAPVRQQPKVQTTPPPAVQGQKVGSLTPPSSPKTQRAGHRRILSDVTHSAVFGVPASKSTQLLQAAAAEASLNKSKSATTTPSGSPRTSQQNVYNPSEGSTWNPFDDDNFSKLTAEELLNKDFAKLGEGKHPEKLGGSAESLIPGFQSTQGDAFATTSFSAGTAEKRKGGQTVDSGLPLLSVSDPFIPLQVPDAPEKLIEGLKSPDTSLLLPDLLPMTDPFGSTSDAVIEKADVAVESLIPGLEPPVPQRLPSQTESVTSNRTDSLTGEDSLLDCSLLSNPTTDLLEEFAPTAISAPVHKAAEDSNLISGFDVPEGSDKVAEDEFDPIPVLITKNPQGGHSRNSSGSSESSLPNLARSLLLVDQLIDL

Sample 1
Target: RNA binding protein fox-1 homolog 2, RRM domain, GST-SBP tag (RBFOX2, Homo sapiens, UniProt O43251-10, residues 100-194)
Method: RNA Bind-n-Seq
Form: RNA
Sample: in vitro
Concentration: 365 nM
Setting: natural RNA segment, single round, ends assumed
Reference: no-protein control
Direction: higher = stronger binding
Residues (chain): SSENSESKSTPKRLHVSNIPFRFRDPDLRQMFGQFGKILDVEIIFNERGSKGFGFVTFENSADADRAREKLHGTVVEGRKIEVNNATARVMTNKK
Strand | RBNS enrichment (R)
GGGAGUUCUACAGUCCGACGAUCUGGCAAAGAUACCAAGUCAUACCUACUCAACAGAUGGCAUGGGACAUAUGAAGAAAUGGAGACAUUAACUUCGUUCUAAAGCCUGAUUGUAGAUUGCUCCUUAAAACUGAUGGAAUUCUCGGGUGCCAA | 1.12
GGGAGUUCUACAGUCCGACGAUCUCAUGUUCCUGCCCCCUUUACUCCAUGCCAAACCUGGGAUUAGACAGCCUGCUGGCUCCAGAAAAAAGGUCUUGGUAGGCAUUAGUCUAUCCUAGGUGCCCCCAGUGCACUGGAAUUCUCGGGUGCCAA | 0.381
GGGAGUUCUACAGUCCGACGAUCUCCAGCCCUCAAAGUAGUCUCUGUAAAUCGCUGGGAUAGUAUUCAUAUUGUGUCAUCUCAGUGUUAUUUUUAAGUGUUCUGAGUUGCCUAAGUAGAACACUCUCUGAAUCUGGAAUUCUCGGGUGCCAA | 0.514
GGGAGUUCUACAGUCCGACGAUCCAGCAAUCUGGGAAGUGACAGGGUUAAUAACUCCUUCCCAGAAGCUGUAUCAUGAGAUUUUGAGGGGACCGAGCCCUGUUACAUGGAUGUGAACAGUGAGGAUCAGAGGUUGGAAUUCUCGGGUGCCAA | 5.03
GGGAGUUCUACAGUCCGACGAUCUUAGCUAUCUGCCUCUUUCCUUUAGCUGGGAAAGUGAGAGCUGGCAUACUAUGCAGUUUUUAUGUUUUCCAUAGUAAGUCAGAAAAUGCCUCCUAUUUCUGGCAUCAGAAUGGAAUUCUCGGGUGCCAA | 0.399
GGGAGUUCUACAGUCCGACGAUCGUCUUCAUGGUUUGCGUUCUGUACAUUUUCAAGCCCUGGUGAUGAUACGCUCAUAUGCACUUAGGAGUGAGCUUUGUUGUACAGUCUGUCCACGGGGUCGAUGCUGUUAUUGGAAUUCUCGGGUGCCAA | 0.662
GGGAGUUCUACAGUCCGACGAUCUGGGGAGGGCCAGAGGAAGUGGUCUAUCUCAACUGUAAGGCCCAUCCCCUCUUAACCAUGACCAGCGGAAGCAGGUGUGUGUGACCAGGGCACGGGGUGAAGAAUCUGCCUGGAAUUCUCGGGUGCCAA | 0.224
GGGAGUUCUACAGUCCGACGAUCAGUAUUUUGUGUCACUGAGAAGCUUUACAAUGGAUGCUUUUGAAACAAGUAUCAGCAAAAGGAUUUGUUUUCACUCUGGGAGGAGAGGGUGGAGAAAGCACUUGCUUUCAUGGAAUUCUCGGGUGCCAA | 0.839

Sample 2
Target: Phosphate system positive regulatory protein PHO4, full length, GST-tagged (PHO4, Saccharomyces cerevisiae, UniProt P07270, residues 1-312)
Method: competition protein-binding microarray
Form: double-stranded DNA, one strand shown
Sample: in vitro
Concentration: 2 µM
Setting: whole 60-bp probe, lowest competitor level
Added: Cbf1 competitor, 0.05 µM
Direction: higher = stronger binding
Target sequence (chain): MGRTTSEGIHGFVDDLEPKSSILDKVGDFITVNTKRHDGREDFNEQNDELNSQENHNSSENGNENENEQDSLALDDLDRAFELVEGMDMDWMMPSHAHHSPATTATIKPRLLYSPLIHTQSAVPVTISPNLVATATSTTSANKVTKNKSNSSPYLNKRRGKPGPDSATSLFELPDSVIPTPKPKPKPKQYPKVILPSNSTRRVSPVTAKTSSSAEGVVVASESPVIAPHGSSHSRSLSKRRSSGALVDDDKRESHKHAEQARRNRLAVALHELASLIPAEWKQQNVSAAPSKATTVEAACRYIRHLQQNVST
Strand | fluorescence intensity [a.u.]
TGGTCTCAGTGCTGGCACCTGACGAACTATTCGTAGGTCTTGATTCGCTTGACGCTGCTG | 4450
CTTTCCCGATCTTGTCCTGTGGGTGTAGCACATTTGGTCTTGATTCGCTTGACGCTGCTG | 4690
CCAACCGGTGTCCACCGCGTGGTCCAGGCGACTTATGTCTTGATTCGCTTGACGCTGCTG | 10100
CATACCCAACCTTGTGTGGTGGGTGAAGATATTTGTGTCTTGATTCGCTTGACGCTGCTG | 6390
CTAACGAAGGTTTGCGACGTGGGTGACAAGCCAAGTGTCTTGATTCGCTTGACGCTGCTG | 6720
GTCTTGTCTCATTGTCACAGTACTTTCCCCACTTCAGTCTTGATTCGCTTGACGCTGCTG | 4920
ATACTTGCATTCGACCACGTGCTTTGGCATGTATCTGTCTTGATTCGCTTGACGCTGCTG | 16000
CTAACGAAGGTTTGTCACCCAACTTACAAGCCAAGTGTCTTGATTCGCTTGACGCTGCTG | 3330

Sample 3
Target: CEP164, C-terminal peptide (human)
Method: DHFR complementation, deep sequencing
Sample: yeast
Setting: single substitutions, model-inferred values
Reference: wild type
Direction: higher = weaker binding
Starting sequence: PDZK1, PDZ domain 2 (human); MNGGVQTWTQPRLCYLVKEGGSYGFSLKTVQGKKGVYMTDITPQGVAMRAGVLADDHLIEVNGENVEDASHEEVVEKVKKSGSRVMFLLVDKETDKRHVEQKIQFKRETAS; partner HNRVKVYRF
Variant | binding free energy change [kcal/mol]
N65Y | 0.336
V17P | 1.14
G51K | 0.542
G21H | 0.0705
P11Q | 0.214
V66A | 1.08
V17M | 0.112
V99L | -0.118

Mixed results
SMILES | target | test | setting | endpoint | value
CC(=O)N1CCC(c2ccc(C(=O)NC3=NCCN3)cc2C(F)(F)F)CC1 | AP2-associated protein kinase 1 (AAK1, Homo sapiens, UniProt Q2M2I8) | binding | 1 µM | remaining binding | 100%

For quick reference, copied from above (sample 2):
Strand | fluorescence intensity [a.u.]
TGGTCTCAGTGCTGGCACCTGACGAACTATTCGTAGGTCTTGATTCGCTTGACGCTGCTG | 4450
CTTTCCCGATCTTGTCCTGTGGGTGTAGCACATTTGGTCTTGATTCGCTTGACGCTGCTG | 4690
CCAACCGGTGTCCACCGCGTGGTCCAGGCGACTTATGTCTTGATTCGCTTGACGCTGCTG | 10100
CATACCCAACCTTGTGTGGTGGGTGAAGATATTTGTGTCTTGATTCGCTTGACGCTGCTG | 6390
